Experimental data gathered from unrelated publications.
Lines come from different studies, so protocols differ. “And” joins repeats or separate records; there may be more than shown. ± gives the spread as reported.

Clc1cc(Cl)cc(-c2cc(Cl)ccc2Cl)c1
log K(PDMS-water) (fresh water; 20 °C, S30-1 sampler, 30 µm): 5.71 ± 0.04

NC(=O)[C@H]1CCN(c2ncnc(N)c2F)C[C@@H]1N1CCC[C@@H](Nc2cc(Cl)cc(C(F)(F)F)c2)C1=O
grade ≥3 bilirubin increase (B-cell malignancy patients; oral, 20.5 mg twice daily, dose): 0%

CN1CCN(c2ccc(Nc3nccc(-c4ccncc4)n3)cc2C(F)(F)F)CC1
toxicity (zebrafish embryos; 25 µM, 5 days): 0%

COc1cccc(Oc2ccccc2NC(=O)CNC(=O)c2cccc3ccccc23)c1
serum creatinine (esterase-deficient SCID mice, male; oral, 100 mg/kg/day, 14 days, toxicity study): 0.2 mg/dL and 0.1 mg/dL

Clc1ccc(Cl)c(-c2ccc(Cl)c(Cl)c2Cl)c1
literature range factor (polyethylene-water partitioning; PCB compilation; reference: maximum over minimum K): 1.3

CC1=C(O)C(=O)C=C2C1=CC=C1[C@@]2(C)CC[C@@]2(C)[C@@H]3C[C@](C)(C(=O)O)CC[C@]3(C)CC[C@]12C
maximal brain concentration (Sprague-Dawley rat male, neocortex; intraperitoneal, dose not given): < 3 ng/mL

CSCC[C@@H]1NC(=O)[C@H](Cc2c[nH]c3ccccc23)NC(=O)[C@@H](NC(=O)CCNC(=O)[C@H](CCC(N)=O)NC(=O)[C@@H]2CCCN2C(=O)[C@@H]2CCCN2C(=O)[C@H](CCCNC(=N)N)NC(=O)[C@H](CCCNC(=N)N)NC(=O)[C@H](CCCNC(=N)N)NC(=O)[C@H](CCC(N)=O)NC(=O)[C@H](CCCNC(=N)N)NC(=O)[C@H](CCCNC(=N)N)NC(=O)[C@H](CCCCN)NC(=O)[C@H](CCCCN)NC(=O)[C@H](CCCNC(=N)N)NC(=O)CN)CSSC[C@@H](C(=O)O)NC(=O)[C@H]([C@@H](C)O)NC(=O)CNC(=O)[C@H](CC(C)C)NC(=O)[C@H](Cc2c[nH]cn2)NC(=O)[C@H](CCCNC(=N)N)NC(=O)[C@@H]2CCCN2C(=O)[C@H](CO)NC1=O
elimination rate constant (competitive EIA; human, plasma; 35 mg, median and quartile range): 0.33 ± 0.39 h⁻¹

C[C@]1(CO)Cc2ncn(-c3ccc(C#N)c(Cl)c3)c2C(=O)O1
subjects with drug-related TEAEs (investigator-assessed; human; 5 mg single dose): 0%

CN1CC[C@@H](c2c(O)cc(O)c3c(=O)cc(-c4ccc(C(F)(F)F)cc4Cl)oc23)[C@@H]1CO
adverse event incidence (measured: Thrombocytopenia; relapsed or refractory haematological malignancies; oral, dose not given, grade 3 to 4): 7.5%

O=S(=O)(Nc1ccccc1)c1ccc(NC(=S)Nc2ccccc2)cc1
relative organ weight (female mice, spleen; oral, 20 mg/kg daily 14 days; reference: body weight): 0.36%

O=[N+]([O-])c1cc2c3c(ccc2c2ccccc12)[C@H](O)[C@@H](O)C=C3
first palpable mammary tumour (female Sprague-Dawley rats; intramammary, dose not given): 23 weeks

O=C(Nc1ccccc1)C1CCN(C(=O)Oc2cccnc2)CC1
adverse event incidence (measured: Somnolence; healthy female human; concentration not given, all doses pooled): 17%

Clc1ccc(-c2ccc(Cl)c(Cl)c2Cl)cc1Cl
literature range factor (polyethylene-water partitioning; PCB compilation; reference: maximum over minimum K): 3

CCc1ccc(CC/C=C/c2ccc3c(c2)C(=O)CC3)cc1
Mononuclear percentage (Sprague-Dawley rat, male; oral, 120 mg/kg/day, 14 days): 3.2%

C=CC(=O)Nc1cc(Nc2nccc(Nc3cc(Cl)c(F)cc3C(C)(C)O)n2)c(OC)cc1N1CC[C@@H](N(C)C)C1
tolerability (measured: body weight; tumour-bearing mice; all doses tested): not toxic

COc1ccc(-c2c(-c3ccc(C#N)c(F)c3)nc(N3CCC(N)CC3)n(C)c2=O)cc1F
treatment-related adverse event incidence (measured: Dysgeusia; human patients; oral, dose not given, any grade, dose escalation, NG): 4%

COc1ncccc1-c1cnn2ccc(N3CCN(C(=O)OC(C)C)CC3)nc12
drug concentration (mouse nerve ligation model, brain; oral, 30 mg/kg, 120 min after last dose, repeat dosing day 3): 24 µM

COc1ccc2nc3cc(Cl)ccc3c(Nc3cc(CN4CCCC4)c(O)c(CN4CCCC4)c3)c2n1
neutrophils (mouse, blood; intraperitoneal, 28 mg/kg): 17.7%

C[C@@H]1NC(=O)[C@H](CCCCNC(=O)CO/N=C/C(=O)NCCCC[C@@H]2NC(=O)[C@@H](Cc3ccccc3)NC(=O)[C@H](CC(=O)O)NC(=O)CNC(=O)[C@H](CCCNC(=N)N)NC2=O)NC(=O)CNC(=O)[C@@H]2CCCN2C(=O)[C@H](CCCCNC(=O)CO/N=C/C(=O)NCCCC[C@@H]2NC(=O)[C@@H](Cc3ccccc3)NC(=O)[C@H](CC(=O)O)NC(=O)CNC(=O)[C@H](CCCNC(=N)N)NC2=O)NC(=O)[C@H](CCCCNC(=O)CCNC(=O)CCNC(=O)CCNC(=O)[C@H](CCCCN)NC(=O)[C@H](Cc2ccccc2)NC(=O)CNC(=O)CN2CCCNCCNCCCNCC2)NC(=O)[C@H](CCCCNC(=O)CO/N=C/C(=O)NCCCC[C@@H]2NC(=O)[C@@H](Cc3ccccc3)NC(=O)[C@H](CC(=O)O)NC(=O)CNC(=O)[C@H](CCCNC(=N)N)NC2=O)NC(=O)CNC(=O)[C@@H]2CCCN2C(=O)[C@H](CCCCNC(=O)CO/N=C/C(=O)NCCCC[C@@H]2NC(=O)[C@@H](Cc3ccccc3)NC(=O)[C@H](CC(=O)O)NC(=O)CNC(=O)[C@H](CCCNC(=N)N)NC2=O)NC1=O [copper-64 labelled]
tissue uptake (normal mice, liver; intravenous, 0.74 MBq, 3 h post-injection): 35.2 ± 1.87 %ID/g

CC(C)C[C@@H]1NC(=O)CNC(=O)[C@H](CC(N)=O)NC(=O)[C@H](CCCNC(=N)N)NC(=O)[C@H]([C@@H](C)O)NC(=O)[C@@H]2CSSC[C@@H]3NC(=O)[C@H]([C@@H](C)O)NC(=O)CNC(=O)[C@H](CCCCN)NC(=O)[C@H](C(C)C)NC(=O)[C@@H]4CSSC[C@H](NC(=O)[C@H]([C@@H](C)O)NC(=O)[C@H](CSSC[C@H](NC(=O)[C@H](C(C)C)NC(=O)[C@@H]5CCCN5C1=O)C(=O)NCC(=O)N[C@@H](CCC(=O)O)C(=O)N[C@@H]([C@@H](C)O)C(=O)N4)NC(=O)CNC(=O)[C@@H]1CCCN1C(=O)[C@H]([C@@H](C)O)NC(=O)[C@H](CC(N)=O)NC3=O)C(=O)N[C@@H](CO)C(=O)N[C@@H](Cc1c[nH]c3ccccc13)C(=O)N1CCC[C@H]1C(=O)N[C@@H](C(C)C)C(=O)N2
remaining peptide (HPLC; ammonium bicarbonate 0.1 M; 180 µM, 14 days, pH 9.0, 37 °C, deamidation stability): 63.6 ± 4.9%

CN[C@H](CC(C)C)C(=O)N[C@H]1C(=O)N[C@@H](CC(N)=O)C(=O)N[C@H]2C(=O)NC3C(=O)N[C@H](C(=O)N[C@H](C(=O)NCCC[N+](C)(C)C)c4cc(O)cc(O)c4-c4cc3ccc4O)[C@H](O)c3ccc(c(Cl)c3)Oc3cc2cc(c3OC2OC(CO)C(O)[C@H](O)[C@@H]2O[C@H]2CC(C)(NCc3ccc(-c4ccc(Cl)cc4)cc3)[C@H](O)[C@H](C)O2)Oc2ccc(cc2Cl)[C@H]1O (some centres unmarked)
MTD (mouse; intravenous): 50 mg/kg

CCN(CCO)CCCC(C)Nc1ccnc2cc(Cl)ccc12 (centres unmarked)
white cell decrease patients (newly diagnosed glioblastoma patients; oral, 400 mg/dose, grade 1, added: radiotherapy and temozolomide): 14%

CC1(C)[C@H](C=C(Cl)Cl)[C@H]1C(=O)OCc1cccc(Oc2ccccc2)c1
CLint (pooled human liver cytosol): 1100 µL/min/mg

[O-][S+]1CCc2nc(N3CCC(c4ncc(Cl)cn4)CC3)nc(NC3(CO)CCC3)c21 (centres unmarked)
adverse event incidence (measured: Headache; healthy male humans; multiple doses, all groups): 31.3%

COc1cc(Cc2cnc(N)nc2N)cc(OC)c1OC
IC50 (Plasmodium falciparum; HB3): 10 µM

CO[C@H]1C[C@@H]2CC[C@@H](C)[C@@](O)(O2)C(=O)C(=O)N2CCCC[C@H]2C(=O)O[C@H]([C@H](C)C[C@@H]2CC[C@@H](OC(=O)NCCOCCOCCOCCOCCOCCOCCOCCOCCC(=O)N3CCc4cc(Cn5nc(-c6ccc7oc(N)nc7c6)c6c(N)ncnc65)ccc4C3)[C@H](OC)C2)C[C@@H](O)[C@H](C)/C=C(\C)[C@@H](O)[C@@H](OC)C(=O)[C@H](C)C[C@H](C)/C=C/C=C/C=C/1C
dyspnoea incidence (patients with advanced solid tumours; intravenous, 16 mg weekly, grade 3 or higher): 0%

CN[C@@H](C)C(=O)N[C@H]1CN(S(=O)(=O)c2cccc(S(=O)(=O)N3CC[C@H]4CC[C@@H](C(=O)NC(c5ccccc5)c5ccccc5)N4C(=O)[C@@H](NC(=O)[C@H](C)NC)C3)c2)CC[C@H]2CC[C@@H](C(=O)NC(c3ccccc3)c3ccccc3)N2C1=O
treatment-related facial nerve disorder incidence (patients with advanced solid tumours; 0.3 mg, phase I monotherapy): 0%

Clc1ccc(Cl)c(-c2cc(Cl)ccc2Cl)c1
relative organ weight (Sprague Dawley rat, thymus; intraperitoneal, 100 mg/kg, 3 weeks; reference: vehicle): no effect

N.N.[Cl][Pt][Cl]
body weight (mouse xenograft model; dose not given, day 0, group mean): 25.2 g

O=C(Nc1ccccc1)C1CCN(C(=O)Oc2cccnc2)CC1
adverse event Dizziness (healthy women; oral, 100 mg, 9 days): 76.9%

Clc1cc(Cl)c(-c2cc(Cl)c(Cl)c(Cl)c2Cl)cc1Cl
log K(PDMS-water) (fresh water; 12 (unit not given), 20 °C): 6.73 ± 0.1

O[C@H]1CCCN[C@@H]1CCCn1cnc2c(Cl)c(Cl)ccc21
median AUC(0-12) (healthy CYP2D6 intermediate metabolizers, plasma; oral, 150 mg single dose, alone): 739 ng·h/mL

Cn1cncc1-c1c(F)cncc1NC(=O)c1c(N)nn2cc(F)cnc12
grade ≥3 lymphocyte decrease incidence (human patients; oral, 180 mg once daily): 27%

CC(C)CC(=O)OC[C@H]1O[C@@](C#N)(c2ccc3c(N)ncnn23)[C@H](O)[C@@H]1O
unbound fraction (plasma protein binding; rat plasma; 0.9 µM): 0.0794

COc1cc2c(Oc3ccc4[nH]c(C)cc4c3F)ccnc2cc1OCC1(N)CC1
grade 3 Tinnitus (paediatric recurrent refractory sarcoma; 12 mg): 0%

CN1CCN(c2ccc(Nc3nccc(-c4cccc(C#N)c4)n3)cc2C(F)(F)F)CC1
toxicity (zebrafish embryos; 25 µM, 5 d): 0%

O=C1Nc2cc3[nH]nc(-c4ccncc4)c3cc2CN1Cc1ccccc1
patients with abdominal pain (CTCAE v4.03; advanced solid tumour patients; intravenous, 0.9 mg/kg, schedules 1/2): 100%

C[C@H]1c2cccc(O)c2C(=O)C2=C(O)[C@]3(O)C(=O)C(C(N)=O)=C(O)[C@@H](N(C)C)[C@@H]3[C@@H](O)[C@@H]21
IC50 (Plasmodium falciparum; 7G8): 3.98 µM

CCOc1cc(Oc2ccc(C(F)(F)F)cc2Cl)ccc1[N+](=O)[O-]
body weight gain (rat, female; 250 mg/kg, 4 days): 24.2%

C[C@@H](NC(=O)N1C(=O)[C@H](Cc2ccnc(N)c2)[C@H]1C(=O)O)C1CCCCC1
incidence of elevated neutrophil (healthy adult Chinese volunteers; continuous intravenous infusion, 1.0 mg/kg/h, 5-day infusion, CTCAE 5.0 grading): 0%

CC/C(=C(\c1ccccc1)c1ccc(OCCN(C)C)cc1)c1ccccc1
elimination rate constant (CD-1 mouse, male, lung; intraperitoneal, 0.3 mg/kg): 0.149 h⁻¹

A few entries again:
COc1ncccc1-c1cnn2ccc(N3CCN(C(=O)OC(C)C)CC3)nc12
drug concentration (mouse nerve ligation model, brain; oral, 30 mg/kg, 120 min after last dose, repeat dosing day 3): 24 µM

Clc1cc(Cl)cc(-c2cc(Cl)ccc2Cl)c1
log K(PDMS-water) (fresh water; 20 °C, S30-1 sampler, 30 µm): 5.71 ± 0.04

Clc1ccc(-c2ccc(Cl)c(Cl)c2Cl)cc1Cl
literature range factor (polyethylene-water partitioning; PCB compilation; reference: maximum over minimum K): 3

CCc1ccc(CC/C=C/c2ccc3c(c2)C(=O)CC3)cc1
Mononuclear percentage (Sprague-Dawley rat, male; oral, 120 mg/kg/day, 14 days): 3.2%

COc1cccc(Oc2ccccc2NC(=O)CNC(=O)c2cccc3ccccc23)c1
serum creatinine (esterase-deficient SCID mice, male; oral, 100 mg/kg/day, 14 days, toxicity study): 0.2 mg/dL and 0.1 mg/dL
